Measured values from different studies.
Numbered parts are unrelated; each lists some results of a single study.

Block 1
Target: Hepatocyte nuclear factor 3-alpha (Foxa1, Mus musculus, UniProt P35582, residues 1-468, full length assumed)
UniProt P35582, sequence (whole entry, looked up): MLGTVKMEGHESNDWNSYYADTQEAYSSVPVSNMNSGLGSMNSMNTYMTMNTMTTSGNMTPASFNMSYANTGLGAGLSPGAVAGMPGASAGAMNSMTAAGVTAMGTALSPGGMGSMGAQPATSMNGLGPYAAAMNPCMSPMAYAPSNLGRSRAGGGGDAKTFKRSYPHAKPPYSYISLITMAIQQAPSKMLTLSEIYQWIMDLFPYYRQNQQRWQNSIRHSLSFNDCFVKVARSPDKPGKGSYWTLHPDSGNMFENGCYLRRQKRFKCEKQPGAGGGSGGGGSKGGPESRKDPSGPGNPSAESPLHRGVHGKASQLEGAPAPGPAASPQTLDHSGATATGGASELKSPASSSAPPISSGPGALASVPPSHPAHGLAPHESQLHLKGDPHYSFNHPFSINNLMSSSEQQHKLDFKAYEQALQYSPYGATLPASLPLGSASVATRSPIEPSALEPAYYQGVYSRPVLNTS
Technique: EMSA with sequencing
Form: double-stranded DNA, one strand shown
Matrix: in vitro
Tested at: 10 and 20 nM
Setting: whole designed probe, mean of two concentrations, ends assumed
Baseline: negative control set to 0
Direction: higher = stronger binding
Quantity: normalised bound fraction
Constant ends, left off below: GTGAGCGGTGCCCATTGATGGGGAAC … TTTCACTGGGATCGTGGGGAC
TTGACTTAAGGCTTCCTCCCAGCCCCCTCTCAGCCTCTAGCAACATACAGATGGCGTCATTCAGCACCTTGAATCATTTGGACAGCAGCAAAAGCAATCTAGAAACTCACCAACAGTGAAGCTAAATTAGCTGTCAGGGCTGCAATTGTACAGAATGTGTGGAAGCCAAGAAATAGCACCAGGGCTAAGAAGC: -0.065 ratio
TTTTTTAGTCTCACTAACTCCAAATCCCCCAAAACAGAAAATGATTCTGTAATTATAAGAGATATAATTTTTCTTCCCTTAGAAGAAGCAAGGTAAACAAGGAATATTGCTTTCTAAGAAATAAAGTATTTTCTTATGCTGGACAAATCATGTTTCCTTAACATAAAGAACTTTATAGTTACATGTAAATTAG: 0.255 ratio
TGGAAAAAGATCCCCAAATGAAACTCCTAAAAATAAACCCTGCAATCACACTGGCATATGTGATCAGTATGAGATTTCATATTGTGCACCCCTGTTTACTCTGAGAATGTGCTTCTTAATGGTTCATGTATACATCATGGCTCTGCTCAAAGTCACTCCTGCAAGAAGCCCAGAGGCTTCTATCTGGAGGCTT: 0.0684 ratio
TACATAACTGAACAGTGATTAAATATTGACTAAGAGCCAGGAGTTGACAGCCATTGGCCTCACCCTGGTAAATGCTGATATATGATGCTGAATGTAAATACAGAGCCATCCTCTCAGGGCCATAGTTTTGTTGGTTTTTTTTTTTTTTTTCTGTTGGGAGATGGGGAGCCAGCAAGTTGTAGCTTATGCTTGA: 0.284 ratio
TGATGATACGTTATAGCATTTCTCTGCTCTGTAAGAGAGGCACCAGGGTCGTGTGCTGGGTCTGGGGTTTGTCCATTCCACATCCGGTGCTGCAGATGACTCTGGTGTCGGCCGCTGGTGAGCTGGCTGTAGCTGGTCACCTCTGGGTGGTTTCTGGGGCGGTCGCAGGCTGACTAACACACCAAAGGTCAGC: -0.0663 ratio

Block 2
Target: Histone acetyltransferase KAT6A, winged helix 1, GST fusion (KAT6A, Homo sapiens, UniProt Q92794, residues 1-85)
Technique: protein binding microarray
Form: double-stranded DNA, one strand shown
Matrix: in vitro
Tested at: not given
Setting: 8-mer, flanks averaged, mean of 2 arrays, mostly near background
Baseline: not given
Direction: higher = stronger binding
Quantity: E-score
Construct (chain): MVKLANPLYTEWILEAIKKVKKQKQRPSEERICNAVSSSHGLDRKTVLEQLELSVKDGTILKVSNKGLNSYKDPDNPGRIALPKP
AGAGAAGG: -0.139
CAAAGTTC: -0.235
GACTGCCA: -0.132
AGGAACCC: -0.126
ACGTCGCG: 0.235
ATATAGGG: 0.0197
GCCTACCA: 0.0695
GATTAGTA: 0.00741
AACATTAT: -0.173
TCGCTTAA: 0.111
ATTCCCTG: -0.22
AGGAGAAT: -0.223
AAGCACGA: -0.23
CCGAAATA: 0.0962
CCCCAATC: -0.174
CCTGCATC: -0.353
AGCGCTAT: 0.233
ATAACAGG: -0.196
CTAGTGGA: -0.198
CAAGCTAC: 0.0425
ACGGGGCC: 0.216
ACCTGCTC: -0.0883
GGGGTGCA: 0.0205

Block 3
Target: RING finger protein unkempt homolog, zinc fingers 1-6, SBP tag (UNK, Homo sapiens, UniProt Q9C0B0, residues 30-357)
UniProt Q9C0B0, sequence (30-357, looked up): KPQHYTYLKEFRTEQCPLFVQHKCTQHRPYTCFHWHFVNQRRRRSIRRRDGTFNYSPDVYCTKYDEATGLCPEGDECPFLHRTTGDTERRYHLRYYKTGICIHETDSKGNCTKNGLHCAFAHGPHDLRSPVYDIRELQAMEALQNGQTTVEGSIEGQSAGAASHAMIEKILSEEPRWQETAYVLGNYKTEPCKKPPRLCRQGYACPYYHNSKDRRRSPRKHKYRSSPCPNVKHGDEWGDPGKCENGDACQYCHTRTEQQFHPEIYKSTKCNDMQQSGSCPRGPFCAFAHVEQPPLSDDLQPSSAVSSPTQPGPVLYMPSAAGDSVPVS
Technique: RNA Bind-n-Seq
Form: RNA
Matrix: in vitro
Tested at: 100 nM
Setting: RNA with constant flanks, vertebrate orthologous sites, ends assumed
Baseline: input RNA pool
Direction: higher = stronger binding
Quantity: bound/input enrichment
Constant ends, left off below: GGGAGUUCUACAGUCCGACGAUC … CAACAGAGGAUUGAGCAUCA
AGAAGACUUUGUGUGCCAGAUUACCCCAAAAACAUAAAGCUACUUUUUUACUUGCAUAUUUUUCAAAGUACCUGGAAAAAUGUUUUUUCUCCUUUCUAAUGGUCAAAAGAAGGUACAUUU: 0.53 ratio
CAGCUGAUUCACUCAUUGGAAGAGCUGCACAUAUAGCUGUUCUUGACUCAGAAAUAUUUUUAGAAAAGUUCUUUUUGGUUGCUGCCCUGAAAUAUUUCCAGUAGGAUAAAAACAUUGUUA: 0.739 ratio
AUAAUCACUCUAAUUGUAAUCUGAAUAAAGUGUAACAUUGUGUAGCCUUUUUGUAUAAACUAGACAAAAUAGAAUGGUCCAAUUAGUUUCCUUUUUAAUAUGCUUAAAAUAAGCAGGUGA: 1.63 ratio
CCCCGUACCCCCUAAGGUAGAACUUUUUAAAAUUUUGUCUCCCCACCACUUCUGAAAACUUAGCAAUAUUAGAAGAAAACACUAACGAAGAAAUUGUGCUCGUUGUUUUGCAAAUGAAAU: 1.86 ratio
GGGUGACUUUGGACGCCCUCAUACAAGGAGCAGAGAGUCCUAGGUUCUGGGCCUGCCGGCUUCGUUUCUUCCUUCCGGACCUGAGGCCUCGUCCACAAACAUGCUUCGCCAGAUCCUCAG: 0.239 ratio
GGGACGUUUCGAUGUAAAAAUUGAAAUUAAGAGCUGAUCACAAGCACAAAUCUUCCCCACUAGCCAUUGAAUAAGUUAAAAAGAUACAAAAACCUACUAGUCUUGAAAAAAAAAAAAAAA: 1.66 ratio
GCACAUGCCGCUAUCACCAAAAGCAAAUUGCCAUUUUUCAAAUUUCAUCCAGAGCCGUUUUAGUGUUUCCUAUUCCCUGCGCUUCCCAUUACUUUCAGUGAUGAAAGUUCUCCUCUGACA: 1.54 ratio
UCCUAUAAUGCUAGCAGACUGGCUUCCCCUUCUACUUCUCCCAGUAACAACAAUCCCACAUAGAUUCCAGACACAUCCGAUGAGACUGUUGUACUCUAGGUUUUCUAUUGUGUCUACAUA: 1.67 ratio

Block 4
Target: Ras GTPase-activating protein-binding protein 1, full length (G3BP1, Homo sapiens, UniProt Q13283)
UniProt Q13283, sequence (whole entry, looked up): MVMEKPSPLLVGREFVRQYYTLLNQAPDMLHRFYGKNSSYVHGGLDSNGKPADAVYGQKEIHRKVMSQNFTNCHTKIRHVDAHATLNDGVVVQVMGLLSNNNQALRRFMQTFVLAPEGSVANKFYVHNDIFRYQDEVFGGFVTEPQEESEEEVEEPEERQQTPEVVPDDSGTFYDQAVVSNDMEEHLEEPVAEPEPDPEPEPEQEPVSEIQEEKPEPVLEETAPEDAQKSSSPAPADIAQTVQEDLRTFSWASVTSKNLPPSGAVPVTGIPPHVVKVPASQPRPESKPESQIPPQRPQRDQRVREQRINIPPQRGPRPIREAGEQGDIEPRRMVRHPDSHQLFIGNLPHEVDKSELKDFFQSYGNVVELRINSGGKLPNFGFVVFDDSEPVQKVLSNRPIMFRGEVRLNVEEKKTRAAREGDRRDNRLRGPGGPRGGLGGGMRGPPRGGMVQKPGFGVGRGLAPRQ
Technique: RNA Bind-n-Seq
Form: RNA
Matrix: in vitro
Tested at: 200 nM
Setting: whole 134-nt RNA, ends assumed
With: 150 mM LiCl
Baseline: input library
Direction: higher = stronger binding
Quantity: log2 enrichment
All molecules: 7-deaza-guanosine replaces G
Constant ends, left off below: GGGAGUUCUACAGUCCGACGAUC … UGGAAUUCUCGGGUGUCAAGG
UCUAACUAAUUUUUCUUUGUUUUUUAACAGGAGAGGAGAUACUUACCCUUAAGUCAAGCCAGAAAAAGUGGUUUCCAAAUGGAUUGGCUG: -1.46
CUCAAGUCCUGUGCUACACAUCGUAUGUACCGAAUCGGAAAAAAAGGAGGUGGAAAGUAUUAUGUUACGCCGUUCGGAUCUGCACUUCCA: -0.515
ACCAUGCAGGUGGGCAUCUUUGGGAAGUGGGGCAAGGUGGGGAUAGGGAGGGGGGUAACACUUUGGGAACAGGUGGUCCCAGGUCGUUUC: 0.399
CCUGUGCUACACAUCGUAUGUACCGAAUCGGGGAAAAAAGGGGAAAAAAGGGGAAAAAAGGAAAGUAUUAUGUUACGCCGUUCGGAUCUG: 0.794
GCAGGAAGUAAAAACAAAUGGAAAUGCUUCGGAUAGUGGCAGGGGUGGGGGUUGCUAAGGAAAGGGUGGGAUGCGAGUGGGUAAAGAGUU: 0.113
UAACUUUAGAGGAGGAUCUGAUGGAUAUGGCAGUGGACGUGGAUUUGGGGAUGGCUAUAAUGGGUAUGGAGGAGGACCUGGAGGUGGCAC: 0.617
CCUCAAGUCCUGUGCUACACAUCGUAUGUACCGAAUCGGAGGAAAAAGGAGGAAAGUAUUAUGUUACGCCGUUCGGAUCUGCACUUCCAG: -0.131
GCAGGAAGUAAAAACAAAUGGAAAUGCUUCGGAUAGUGGCAGGGGUGGGGGUUGCUAAGGAAAGGGUGGGAUGAAAGUGGGUAAAGAGUU: 0.00694

Block 5
Target: Sal-like protein 4, full length isoform B (SALL4, Homo sapiens, UniProt Q9UJQ4-2, residues 1-616)
Technique: universal PBM
Form: double-stranded DNA, one strand shown
Matrix: in vitro
Tested at: not given
Setting: 8-mer, flanks averaged, mean of replicates
Direction: higher = stronger binding
Quantity: E-score
Residues (chain): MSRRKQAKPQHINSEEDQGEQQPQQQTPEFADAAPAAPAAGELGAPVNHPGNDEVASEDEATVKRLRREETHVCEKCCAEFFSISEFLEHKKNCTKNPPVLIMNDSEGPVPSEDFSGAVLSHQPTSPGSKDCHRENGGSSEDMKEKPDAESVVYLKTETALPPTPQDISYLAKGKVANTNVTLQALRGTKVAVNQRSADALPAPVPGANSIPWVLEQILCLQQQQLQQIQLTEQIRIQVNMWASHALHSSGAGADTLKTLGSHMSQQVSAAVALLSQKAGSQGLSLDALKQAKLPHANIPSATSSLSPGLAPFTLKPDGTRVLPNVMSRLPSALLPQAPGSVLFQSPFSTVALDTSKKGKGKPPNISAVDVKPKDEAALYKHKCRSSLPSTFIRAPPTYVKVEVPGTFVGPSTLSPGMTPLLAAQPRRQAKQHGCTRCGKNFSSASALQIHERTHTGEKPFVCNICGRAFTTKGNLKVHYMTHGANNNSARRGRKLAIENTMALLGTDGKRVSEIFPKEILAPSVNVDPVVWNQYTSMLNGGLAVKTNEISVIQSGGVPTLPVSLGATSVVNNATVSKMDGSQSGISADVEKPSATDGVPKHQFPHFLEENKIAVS
ACAGGTCC: -0.174
ATTGGACA: 0.141
GCCGTTAC: -0.159
CAAGGGAA: 0.0741
CACAGCCC: -0.263
CGTCAACG: -0.181
CATAAATC: 0.346
ATTTCCAG: 0.0586
GATTATCC: 0.0326
AATGTCGA: 0.145
AAATAAAT: 0.399
CGAGAGAC: -0.162
AACAAAGA: 0.196
ATCCGGCA: -0.123
AAGGTAAA: 0.269
CCCAGTTC: -0.206
AAACGCAC: 0.00937
ATTCACGG: 0.076
CGACTGTC: -0.225
CTAAGTAC: 0.131
TAAGTAGA: 0.169
ACGCGTTG: 0.00395

For quick reference, copied from above (block 2):
ACCTGCTC: -0.0883
ATATAGGG: 0.0197
ACGTCGCG: 0.235
GGGGTGCA: 0.0205
AACATTAT: -0.173
CCCCAATC: -0.174
ATTCCCTG: -0.22
GCCTACCA: 0.0695
CCTGCATC: -0.353
